Experimental data collected from several papers.
Each numbered part is a random draw from the data of one study; scales do not carry over between parts.

Study 1
Target: Histone acetyltransferase KAT6A, winged helix 2, GST fusion (KAT6A, Homo sapiens, UniProt Q92794, residues 85-181)
Method: protein binding microarray
Molecule type: double-stranded DNA, one strand shown
Medium: in vitro
Concentration: not given
Setting: 8-mer, flanks averaged, mean of 2 arrays, mostly near background
Baseline: not given
Direction: higher = stronger binding
Residues (chain): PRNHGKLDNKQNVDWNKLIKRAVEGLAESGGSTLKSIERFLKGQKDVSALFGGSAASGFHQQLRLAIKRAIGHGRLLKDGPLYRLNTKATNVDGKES
| Strand | E-score |
| --- | --- |
| CCGTCACG | -0.179 |
| ATGTTTAC | 0.00857 |
| AGTTCGGC | 0.0532 |
| ACAATAGT | -0.000845 |
| ATCTGGGG | -0.133 |
| AAGATCGG | 0.0297 |
| ATCCGGTG | 0.199 |
| AGATGTCC | -0.189 |

Study 2
Target: RNA binding protein fox-1 homolog 2, RRM domain, GST-SBP tag (RBFOX2, Homo sapiens, UniProt O43251-10, residues 100-194)
Method: RNA Bind-n-Seq
Molecule type: RNA
Medium: in vitro
Concentration: 365 nM
Setting: natural RNA segment, single round, ends assumed
Baseline: no-protein control
Direction: higher = stronger binding
All sequences stand within: GGGAGUUCUACAGUCCGACGAUC … UGGAAUUCUCGGGUGCCAA
Residues (chain): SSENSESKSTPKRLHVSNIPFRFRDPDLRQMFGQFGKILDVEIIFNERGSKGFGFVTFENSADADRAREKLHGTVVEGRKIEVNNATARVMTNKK
| Strand | RBNS enrichment (R) |
| --- | --- |
| CUCUUCUGCACAUUUCCAUAUCUAGAGAUGGAUAGUCCUGAACUUGACGUCACACCCACAGGUGAAACAGCCCGAAGUCAAGGCCUUGCUAGUAAAUGGAGCUUUGUACA | 1.23 |
| GCAAGAAAUCAUAAAAUGAAGACUUAUACCAUUGUGUUUAAGCUGUAUUGAAUUAUCUGUGGAAUGCAUUGUGAACUGUAAAGCAAAGUAUCAAUAAAGCUUAUAGACUU | 0.698 |
| AUUCCUUGGGAUUCUGGUUUGGGGUGGUCAGUGCCCUCUGUGCUUUAUGGACACAAAACCAGAGCACUUGAUGAACUCGGGGUACUAGGGUCAGGGCUUAUAGCAGGAUG | 0.407 |
| GGAAAGCAGGCCAAGAACUUGUCAUGUGCCCCAUCCACUUCGAGGCUGGAUGGGAUGGGGCUCCAAGUCUGAGAUUUCAUUGAUACUAGGCAAUAUGGUUUGUAAAAUAC | 0.387 |
| CAUUUUAUUAGGGGUUGUGACAACAUUAUUAAACUUUUGUGUAUAUAAAGCCAGGUGUCUUAGCUAGAUAUAUUUCCAGUCUUUUAACUUUGACACUGUGAAGCUCUAAG | 0.343 |
| UAAUGUUAAGUGGGGUACAGAUCAGCUGCCCCCCCACGUAGCCUGGACAUCGUCUUAUCCCCAUAAUCCUUGCCAUCCCUACAAGGCCCAUCGCCACCACCUUUUCCCAG | 0.314 |
| CUCCUUUGCUGCCCACUUGUAAGUUUAAAUAAGGACACCGCCCUACACAAACCUCACCCCUGUCACAUCAGUGACUCUGACCACUUUUGUUCUCAAACUCUCUCACUAUU | 0.661 |
| GUUUGGUAUUUUUGCAUUAUGACAGUUGUUGAGACUAGGAUUUUAAGCUAGGAUAUGAUUAUAUUUCCUAUAUAACUAAAAAUUUUGUUUCAUAAAUUUUAAAAUAAUUA | 1.92 |

Study 3
Target: Centromere-binding protein 1, full length, N-terminal tag (CBF1, Saccharomyces cerevisiae, UniProt P17106, residues 1-351)
UniProt P17106, sequence (whole entry, looked up): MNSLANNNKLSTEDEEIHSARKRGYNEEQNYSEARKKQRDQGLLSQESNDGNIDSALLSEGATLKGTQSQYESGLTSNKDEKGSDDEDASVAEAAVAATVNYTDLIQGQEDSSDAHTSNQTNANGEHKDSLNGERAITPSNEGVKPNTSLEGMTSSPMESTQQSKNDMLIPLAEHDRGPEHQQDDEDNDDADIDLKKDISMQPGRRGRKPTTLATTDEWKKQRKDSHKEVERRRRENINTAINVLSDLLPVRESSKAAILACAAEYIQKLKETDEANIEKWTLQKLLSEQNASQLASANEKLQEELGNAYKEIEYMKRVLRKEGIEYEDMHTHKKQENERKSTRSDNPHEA
Method: protein-binding microarray
Molecule type: double-stranded DNA, one strand shown
Medium: in vitro
Concentration: 0.8 µM
Setting: whole 60-bp probe, no competitor
Direction: higher = stronger binding
All sequences stand within: … GTCTTGATTCGCTTGACGCTGCTG
| Strand | fluorescence intensity |
| --- | --- |
| CTACCCTGGAAGTCTCAGCTGATTCATTTAAATTTC | 665 a.u. |
| GAATGTTTTTCTTCGCACATGGCTGGTTCTGCTTAG | 713 a.u. |
| GAAGATATCTCAGATGACGTCATTGAGCTAGCTTAG | 507 a.u. |
| TGTACGAAGCTATAGGTGGTGATTATAGTAGTTAGG | 580 a.u. |
| CTAAAATATATTGATCACGTGAAATTAGTGGCATTC | 17000 a.u. |
| CTAGGCATCGTCTCTCACGTGAAATCTGTGGGGTTC | 2510 a.u. |
| GAATCAGTGGATTCTGATGTAATTGTTGGGATTTAG | 501 a.u. |

Single results of other studies
| Molecule | target | assay | system | setting | scale | quantity | value |
| --- | --- | --- | --- | --- | --- | --- | --- |
| PhoQ, residues 284 288 289 292 302 303 SSCCRF | PhoP, residues 12 14 15 18 19 AQALL (Escherichia coli, UniProt P23836) | Sort-seq, item: YFP reporter | E. coli | PhoQ-PhoP variant library, with: 10 µM Mg2+ | baseline: high Mg2+ state, higher = stronger signaling | fold induction | 10 |

For quick reference, copied from above (study 2):
| Strand | RBNS enrichment (R) |
| --- | --- |
| GGAAAGCAGGCCAAGAACUUGUCAUGUGCCCCAUCCACUUCGAGGCUGGAUGGGAUGGGGCUCCAAGUCUGAGAUUUCAUUGAUACUAGGCAAUAUGGUUUGUAAAAUAC | 0.387 |
| CAUUUUAUUAGGGGUUGUGACAACAUUAUUAAACUUUUGUGUAUAUAAAGCCAGGUGUCUUAGCUAGAUAUAUUUCCAGUCUUUUAACUUUGACACUGUGAAGCUCUAAG | 0.343 |
